Experimental data gathered from unrelated publications.
Protocols differ between the studies behind these lines. Numbers after ± are the reported error.
Technique: steady-state kinetics
B1: pfkA (Thermus thermophilus, UniProt P21777); chain MKRIGVFTSGGDAPGMNAAIRAVVRQAHALGVEVIGIRRGYAGMIQGEMVPLGVRDVANIIQRGGTILLTARSQEFLTEEGRAKAYAKLQAAGIEGLVAIGGDGTFRGALCLVEEHGMPVVGVPGTIDNDLYGTDYTIGFDTAVNTALEAIDRIRDTAASHERVFFIEVMGRHAGFIALDVGLAGGAEVIAVPEEPVDPKAVAEVLEASQRRGKKSSIVVVAEGAYPGGAAGLLAAIREHLQVEARVTVLGHIQRGGSPTAKDRILASRLGAAAVEALVGGASGVMVGEVEGEVDLTPLKEAVERRKDINRALLRLSQVLAL
B2: CODH (Afipia carboxidovorans, UniProt P19920); chain MIPGSFDYHRPKSIADAVALLTKLGEDARPLAGGHSLIPIMKTRLATPEHLVDLRDIGDLVGIREEGTDVVIGAMTTQHALIGSDFLAAKLPIIRETSLLIADPQIRYMGTIGGNAANGDPGNDMPALMQCLGAAYELTGPEGARIVAARDYYQGAYFTAIEPGELLTAIRIPVPPTGHGYAYEKLKRKIGDYATAAAAVVLTMSGGKCVTASIGLTNVANTPLWAEEAGKVLVGTALDKPALDKAVALAEAITAPASDGRGPAEYRTKMAGVMLRRAVERAKARAKN
B3: ycjS (Escherichia coli, UniProt P77503); chain MKSAMTSSPLRVAIIGAGQVADKVHASYYCTRNDLELVAVCDSRLSQAQALAEKYGNASVWDDPQAMLLAVKPDVVSVCSPNRFHYEHTLMALEAGCHVMCEKPPAMTPEQAREMCDTARKLGKVLAYDFHHRFALDTQQLREQVTNGVLGEIYVTTARALRRCGVPGWGVFTNKELQGGGPLIDIGIHMLDAAMYVLGFPAVKSVNAHSFQKIGTQKSCGQFGEWDPATYSVEDSLFGTIEFHNGGILWLETSFALNIREQSIMNVSFCGDKAGATLFPAHIYTDNNGELMTLMQREIADDNRHLRSMEAFINHVQGKPVMIADAEQGYIIQQLVAALYQSAETGTRVEL
B4: enzyme (Pseudomonas putida, UniProt F8G0M2); chain MKGYNVYANGIRQHIIHFPGTGSPLLLIPGITSPAVTWGFVAERLAKYFDVHVVDVRGRGLSESGDLDYSLDAMADDLVALAQRMEGVVVLGHSMGARIAIRAARKDSQVFSRLILVDPPVSGPGRRPYPAKWSWYAESIRLAQRGCTAMEMRSYCPTWTDEQIELRAEWLHTCQYTAVKTAFDGFHTDDIHTDLAQLTLPIQLVVAGGAEVIQPDDIAEIISLAPQTTTYVVEEAGHMIPWDNLEGFITAVSNR
B5: UCK2 (Homo sapiens, UniProt Q9BZX2); chain MAGDSEQTLQNHQQPNGGEPFLIGVSGGTASGKSSVCAKIVQLLGQNEVDYRQKQVVILSQDSFYRVLTSEQKAKALKGQFNFDHPDAFDNELILKTLKEITEGKTVQIPVYDFVSHSRKEETVTVYPADVVLFEGILAFYSQEVRDLFQMKLFVDTDADTRLSRRVLRDISERGRDLEQILSQYITFVKPAFEEFCLPTKKYADVIIPRGADNLVAINLIVQHIQDILNGGPSKRQTNGCLNGYTPSRKRQASESSSRPH
B6: protein (Actinidia deliciosa, UniProt C7SHN9); chain MEPLLFSIQTLVHQVKQEIFSSTFDLYSFVSPSAYDTAWLAMIPHPKQNSCPKFKGCLDWILDNQKEAGYWGECDHDGLPTIDSLPATLACMVALKTWGVSEKHINKGLAFIHANSTTLLKEKYDHLPRWFVIVFPAMVEVAQAAGLKVLFSNGLEEVVLNISLEREKILEREEFVDKYHYPPLASYLEALPPSYTIDRKDITMNLSGDGSCFQSPSATARAFLATGNQKCMAYLESLVQKRPGGVPTMYPMDGELVSLCLVNQIQRLGLAEHFTEEIEENLKLIYENYKNQESREMKDSYLVPTKIYKDSLAFRLLRMHGYNVTPRRFCWFLYQEDIRVHIEKNYECFTSALYNVYRATDLMFSGEYELEEARVFSRKLLEKSMKLKSLNDNLVNFPSFRSVIDHELSVPWIARLEHLDHRMWIEENKVDTLWIGKASFYRLRALNDKLMTLAVESYKFRQSFYRNELEELKRWSKDWGLTDLGFGRKKTTYCYYAIAASSSLPHNSMVRLIVAKSAILVTIADDFFDMEGSLEDLQSLTQAVQRWDGNSLSGHGKIIFCALDNLVSDIAKPHLHLEGSHVAENVKNMWSETIASWLTETTWSHTGYVPSLDEYLQTGKISVASQLMTVPALCFLSPNVHPICKLEANHYQIITKLLMVSTRLLNDTQTYEKELKDGKRNFVILHSKGSPQTGIEKSVAFVKEILDQIEKEFLEHTLMDGHNDLPKPCKHLHLSILRAFHMFYNSGDLFDSDTGLLHDINKAFYVPL
B7: Saccharopine reductase C154S (Saccharomyces cerevisiae, UniProt P38999); chain MGKNVLLLGSGFVAQPVIDTLAANDDINVTVACRTLANAQALAKPSGSKAISLDVTDDSALDKVLADNDVVISLIPYTFHPNVVKSAIRTKTDVVTSSYISPALRELEPEIVKAGITVMNEIGLDPGIDHLYAVKTIDEVHRAGGKLKSFLSYSGGLPAPEDSDNPLGYKFSWSSRGVLLALRNSAKYWKDGKIETVSSEDLMATAKPYFIYPGYAFVCYPNRDSTLFKDLYHIPEAETVIRGTLRYQGFPEFVKALVDMGMLKDDANEIFSKPIAWNEALKQYLGAKSTSKEDLIASIDSKATWKDDEDRERILSGFAWLGLFSDAKITPRGNALDTLCARLEELMQYEDNERDMVVLQHKFGIEWADGTTETRTSTLVDYGKVGGYSSMAATVGYPVAIATKFVLDGTIKGPGLLAPYSPEINDPIMKELKDKYGIYLKEKTVA
B8: sacB Y196F (Priestia megaterium, UniProt D5DC07); chain KGNDSKDFNNSYGISHITRDNMVKIPQQQNSDQFKVPAFDESTIKNIASAKGKNASGNTIDLDVWDSWPLQNADGTVATYHGYQIVFALAGDPKDSNDTSVYLFYKKAGDKSIDSWKNAGRVFKDSDKFVPNDPHLKNQTQEWSGSGTLTKDGKVRLFYTDYSGKQFGKQTLTTAQVNMSQPNDNTLKVDGVEDYKSIFDGDGKIYQTVQQFIDEGGYDTGDNHTLRDPHYIEDNGHKYLVFEANTGTEDGYQGEDSLYNRAYYGGNNPFFQSEKKKLLEGSNKEKASLANGALGIIELNDDYTLKKVMKPLITSNTVTDEIERANIFKKDGKWYLFTDSRGSKMTIDGIGQDDVYMLGYVSNTLTGKYKPLNDTGLVLHMDLDPNDKTFTYSHFAVPQTKGDNVVITSYMTNRGFYEDNHSTFAPSFLVNIDGSKTSVVKDRVLEQGQLTVDED
B9: ERAP1 (Homo sapiens, UniProt Q9NZ08); chain MVFLPLKWSLATMSFLLSSLLALLTVSTPSWCQSTEASPKRSDGTPFPWNKIRLPEYVIPVHYDLLIHANLTTLTFWGTTKVEITASQPTSTIILHSHHLQISRATLRKGAGERLSEEPLQVLEHPRQEQIALLAPEPLLVGLPYTVVIHYAGNLSETFHGFYKSTYRTKEGELRILASTQFEPTAARMAFPCFDEPAFKASFSIKIRREPRHLAISNMPLVKSVTVAEGLIEDHFDVTVKMSTYLVAFIISDFESVSKITKSGVKVSVYAVPDKINQADYALDAAVTLLEFYEDYFSIPYPLPKQDLAAIPDFQSGAMENWGLTTYRESALLFDAEKSSASSKLGITMTVAHELAHQWFGNLVTMEWWNDLWLNEGFAKFMEFVSVSVTHPELKVGDYFFGKCFDAMEVDALNSSHPVSTPVENPAQIREMFDDVSYDKGACILNMLREYLSADAFKSGIVQYLQKHSYKNTKNEDLWDSMASICPTDGVKGMDGFCSRSQHSSSSSHWHQEGVDVKTMMNTWTLQKGFPLITITVRGRNVHMKQEHYMKGSDGAPDTGYLWHVPLTFITSKSDMVHRFLLKTKTDVLILPEEVEWIKFNVGMNGYYIVHYEDDGWDSLTGLLKGTHTAVSSNDRASLINNAFQLVSIGKLSIEKALDLSLYLKHETEIMPVFQGLNELIPMYKLMEKRDMNEVETQFKAFLIRLLRDLIDKQTWTDEGSVSERMLRSQLLLLACVHNYQPCVQRAEGYFRKWKESNGNLSLPVDVTLAVFAVGAQSTEGWDFLYSKYQFSLSSTEKSQIEFALCRTQNKEKLQWLLDESFKGDKIKTQEFPQILTLIGRNPVGYPLAWQFLRKNWNKLVQKFELGSSSIAHMVMGTTNQFSTRTRLEEVKGFFSSLKENGSQLRCVQQTIETIEENIGWMDKNFDKIRVWLQSEKLEHDPEADATG
B10: AtTPS18 G328P (Arabidopsis thaliana, UniProt Q9LUE2); chain STKSSDDLEGSRPSTYFSPSLWGDHFLSVSLDRGEFDELEREIETMKPLVKDMLMSSQSSDKEKIRLIHLLVSLGSSYHFDKEIQDILKHSFTKLDDIIVGEDDLETISIMFEVFRLYGHKMSCDAFDRFRGEDGRFKESLAKDVRGMLQLFEVAHLGTPSEDIMDEASSFAQNHLDSWIGGNVSGATPHLLKHIQNSLYIPRYCNIEVLVAREYISYYEQEEGHNKILLKFAKLNFNFCQFHYIQELKTLTKWWKDLDLASKLPYIRDRLVESHLPGLGPYFEPHYSLGRIIVAKIIMTMVVVDDTYDAHATVPEVAVLTECLQRLNIGADDKLPDYLRTVLESVFEVMGEIEQEMRPKGRSYGVKQVLERFKNVAKADKQLTEWARTGDVPSFDEYMKVGLVTAGMDGYAGYCFIGMEDVSEKEAFEWLSSNPLIIQALNVMFRLANDVGTYETEINRGEVANGLNCYMKQYGVTKEEASQELRKIYSNNKKVVMEEFMNSHDHVPRQVLLRCLNFARLFDVMYTEGDGYSEPKGKIEHFMTSLYVHPIPLS
UniProt A8NCK5, sequence (whole entry, looked up): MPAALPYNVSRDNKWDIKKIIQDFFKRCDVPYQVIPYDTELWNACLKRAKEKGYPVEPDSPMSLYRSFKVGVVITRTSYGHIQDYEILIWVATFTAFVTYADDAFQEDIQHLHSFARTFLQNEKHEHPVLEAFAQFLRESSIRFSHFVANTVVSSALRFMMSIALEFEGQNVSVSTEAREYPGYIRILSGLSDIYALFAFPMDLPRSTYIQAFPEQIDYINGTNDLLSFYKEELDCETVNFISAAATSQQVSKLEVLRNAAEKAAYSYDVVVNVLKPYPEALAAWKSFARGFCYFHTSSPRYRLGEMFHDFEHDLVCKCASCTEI
UniProt P07914, sequence (whole entry, looked up): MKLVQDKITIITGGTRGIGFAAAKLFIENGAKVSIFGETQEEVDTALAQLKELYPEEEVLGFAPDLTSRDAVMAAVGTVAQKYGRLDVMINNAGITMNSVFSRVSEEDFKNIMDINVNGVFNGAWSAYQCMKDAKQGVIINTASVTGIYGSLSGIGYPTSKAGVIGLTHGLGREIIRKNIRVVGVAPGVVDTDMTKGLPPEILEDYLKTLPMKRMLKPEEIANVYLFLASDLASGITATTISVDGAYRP

BaiA1 (Clostridium scindens, UniProt P07914)
kcat (C[C@H](CCC(=O)SCCNC(=O)CCNC(=O)[C@H](O)C(C)(C)COP(=O)(O)OP(=O)(O)OC[C@H]1O[C@@H](n2cnc3c(N)ncnc32)[C@H](O)[C@@H]1OP(=O)(O)O)[C@H]1CC[C@H]2[C@@H]3CC[C@@H]4CC(=O)CC[C@]4(C)[C@H]3C[C@H](O)[C@]12C; pH 8.7, 37 °C, with: NADH): 0.733 s⁻¹

B1 (pfkA)
kcat (Nc1ncnc2c1ncn2[C@@H]1O[C@H](COP(=O)(O)OP(=O)(O)OP(=O)(O)O)[C@@H](O)[C@H]1O; pH 8, 25 °C, Hill fit, with: Fru-6-P 5 mM, MgCl2 5 mM): 25 s⁻¹

B2 (CODH)
kcat (O=C1C=CC(=O)C=C1; pH 7.2, 25 °C, anaerobic, with: CO saturating): 104 s⁻¹

enzyme (Limosilactobacillus reuteri, UniProt Q5SBN3)
kcat (OC[C@H]1O[C@@](CO)(O[C@H]2O[C@H](CO)[C@@H](O)[C@H](O)[C@H]2O)[C@@H](O)[C@@H]1O; pH 4.7, 37 °C): 271 ± 3.1 s⁻¹

enzyme (Tetranychus urticae, UniProt T1KUK4)
kcat (O=c1ccn([C@@H]2O[C@H](CO[P@@](=O)(O)O[P@@](=O)(O)O[C@H]3O[C@H](CO)[C@@H](O)[C@H](O)[C@H]3O)[C@@H](O)[C@H]2O)c(=O)[nH]1; pH 7.8): 0.088 ± 0.023 s⁻¹

B3 (ycjS)
kcat (CO[C@@H]1O[C@H](CO)[C@@H](O)C(=O)[C@H]1O; pH 7, 30 °C, with: NADH 0.3 mM): 19 ± 1 s⁻¹

sacB (Priestia megaterium, UniProt D5DC07)
kcat (OC[C@H]1O[C@@](CO)(O[C@H]2O[C@H](CO)[C@@H](O)[C@H](O)[C@H]2O)[C@@H](O)[C@@H]1O; pH 6.6): 198 ± 3.3 s⁻¹

B4 (enzyme)
kcat (O=CNC(=O)/C=C\C(=O)O; pH 6.7, 25 °C): 542 ± 9 s⁻¹

Cop6 (Coprinopsis cinerea, UniProt A8NCK5)
kcat (CC(C)=CCC/C(C)=C/COP(=O)(O)OP(=O)(O)O; pH 8, 30 °C, with: MgCl2 10 mM): 0.035 ± 0.003 s⁻¹

B5 (UCK2)
kcat (Nc1ccn([C@@H]2O[C@H](CO)[C@@H](O)[C@H]2O)c(=O)n1; pH 7.2, 25 °C, KCl 100 mM, with: ATP 100–200 µM): 4.3 ± 0.2 s⁻¹

B6 (protein)
kcat (CC(C)=CCC/C(C)=C/COP(=O)(O)OP(=O)(O)O; pH 7.5, with: GPP 1-100 µM): 0.03 ± 0.005 s⁻¹

B7 (Saccharopine reductase C154S)
kcat (N[C@@H](CCCCN[C@@H](CCC(=O)O)C(=O)O)C(=O)O; pH 9, 25 °C, with: saccharopine): 0.12 ± 0.03 s⁻¹

enzyme (Triticum aestivum, UniProt A0A6J4BJN3)
kcat (O=C1[C@@H](O[C@@H]2O[C@H](CO)[C@@H](O)[C@H](O)[C@H]2O)Oc2ccccc2N1O; pH 7.2, 30 °C): 0.715 s⁻¹

B8 (sacB Y196F)
kcat (OC[C@H]1O[C@@](CO)(O[C@H]2O[C@H](CO)[C@@H](O)[C@H](O)[C@H]2O)[C@@H](O)[C@@H]1O; pH 6.9): 285.9 ± 2.8 s⁻¹

B9 (ERAP1)
kcat (CC(C)C[C@H](N)C(=O)N[C@@H](CO)C(=O)N[C@@H](CCCNC(=N)N)C(=O)N[C@@H](Cc1c[nH]cn1)C(=O)N[C@@H](Cc1c[nH]cn1)C(=O)N[C@@H](C)C(=O)N[C@@H](Cc1ccccc1)C(=O)N[C@@H](CO)C(=O)N[C@@H](Cc1ccccc1)C(=O)N[C@@H](CCCNC(=N)N)C(=O)O; 25 °C): 0.55 ± 0.035 s⁻¹

B10 (AtTPS18 G328P)
kcat (CC(C)=CCC/C(C)=C/CC/C(C)=C/CC/C(C)=C/CC/C(C)=C/COP(=O)(O)OP(=O)(O)O; pH 7.5, 30 °C, product C5 measured, with: Mg2+ 10 mM): 0.047 ± 0.05 s⁻¹

protein (UniProt M4ZR24)
kcat (NC[C@H]1O[C@@H](n2ccc(=O)[nH]c2=O)[C@H](O)[C@@H]1O; phosphorolysis, single substrate, with: phosphate): 0.0667 ± 0.005 s⁻¹

A few entries again:
enzyme (Tetranychus urticae, UniProt T1KUK4)
kcat (O=c1ccn([C@@H]2O[C@H](CO[P@@](=O)(O)O[P@@](=O)(O)O[C@H]3O[C@H](CO)[C@@H](O)[C@H](O)[C@H]3O)[C@@H](O)[C@H]2O)c(=O)[nH]1; pH 7.8): 0.088 ± 0.023 s⁻¹

B3 (ycjS)
kcat (CO[C@@H]1O[C@H](CO)[C@@H](O)C(=O)[C@H]1O; pH 7, 30 °C, with: NADH 0.3 mM): 19 ± 1 s⁻¹
